Results pooled from the literature.
Protocols differ between the studies behind these lines. Values joined by “and” are separate records of one study, mostly repeats; a detail may differ. ± gives the spread as reported.
U2AF2: U2AF2 148-342 (Homo sapiens, UniProt P26368)
Sequence of UniProt P26368 (whole entry, looked up): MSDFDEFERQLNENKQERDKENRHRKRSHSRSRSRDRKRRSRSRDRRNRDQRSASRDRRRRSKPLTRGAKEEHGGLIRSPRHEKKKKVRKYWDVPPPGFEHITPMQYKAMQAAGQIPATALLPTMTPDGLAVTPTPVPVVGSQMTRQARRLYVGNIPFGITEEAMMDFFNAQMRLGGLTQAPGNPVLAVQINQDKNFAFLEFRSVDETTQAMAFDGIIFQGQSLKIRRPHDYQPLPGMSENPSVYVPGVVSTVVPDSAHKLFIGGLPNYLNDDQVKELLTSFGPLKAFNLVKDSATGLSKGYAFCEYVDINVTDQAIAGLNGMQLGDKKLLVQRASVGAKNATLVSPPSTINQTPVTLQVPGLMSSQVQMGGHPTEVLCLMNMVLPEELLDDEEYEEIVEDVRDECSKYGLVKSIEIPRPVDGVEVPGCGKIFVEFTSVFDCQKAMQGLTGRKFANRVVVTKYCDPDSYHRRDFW
B1: FasL; sequence looked up; chain QIGHPSPPPEKKELRKVAHLTGKSNSRSMPLEWEDTYGIVLLSGVKYKKGGLVINETGLYFVYSKVYFRGQSCNNLPLSHKVYMRNSKYPQDLVMMEGKMMSYCTTGQMWARSSYLGAVFNLTSADHLYVNVSELSLVNFEESQTFFGLYKL
B2: citrin, human; sequence looked up; chain AAAKVALTKRADPAELRTIFLKYASIEKNGEFFMSPNDFVTRYLNIFGESQPNPKTVELLSGVVDQTKDGLISFQEFVAFESVLCAPDALFMVAFQLFDKAGKGEVTFEDVKQVFGQTTIHQHIPFNWDSEFVQLHFGKERKRHLTYAEFTQFLLEIQLEHAKQAFVQRDNARTGRVTAIDFRDIMVTIRPHVLTPFVEECLVAAAGGTTSHQVSFSYFNGFNSLLNNMELIRKIYSTLAGTRKDVEVTKEEFVLAAQKFGQVTPMEVDILFQLADLYEPRGRMTLADIERIAPLEEGTLPFNLAEAQRQKASGDSARPVLLQVAESAYRFGLGSVAGAVGATAVYPIDLVKTRMQNQRSTGSFVGELMYKNSFDCFKKVLRYEGFFGLYRGLLPQLLGVAPEKAIKLTVNDFVRDKFMHKDGSVPLAAEILAGGCAGGSQVIFTNPLEIVKIRLQVAGEITTGPRVSALSVVRDLGFFGIYKGAKACFLRDIPFSAIYFPCYAHVKASFANEDGQVSPGSLLLAGAIAGMPAASLVTPADVIKTRLQVAARAGQTTYSGVIDCFRKILREEGPKALWKGAGARVFRSSPQFGVTLLTYELLQRWFYIDFGGVKPMGSEPVPKSRINLPAPNPDHVGGYKLAVATFAGIENKFGLYLPLFKPSVSTSKAIGGGP
B3: peroxiredoxin-4 (human); sequence looked up; chain WETEERPRTREEECHFYAGGQVYPGEASRVSVADHSLHLSKAKISKPAPYWEGTAVIDGEFKELKLTDYRGKYLVFFFYPLDFTFVCPTEIIAFGDRLEEFRSINTEVVACSVDSQFTHLAWINTPRRQGGLGPIRIPLLSDLTHQISKDYGVYLEDSGHTLRGLFIIDDKGILRQITLNDLPVGRSVDETLRLVQAFQYTDKHGEVCPAGWKPGSETIIPDPAGKLKYFDKLN
B4: human matrin-3; sequence looked up; chain SKSFQQSSLSRDSQGHGRDLSAAGIGLLAAATQSLSMPASLGRMNQGTARLASLMNLGMSSSLNQQGAHSALSSASTSSHNLQSIFNIGSRGPLPLSSQHRGDADQASNILASFGLSARDLDELSRYPEDKITPENLPQILLQLKRRRTEEGPTLSYGRDGRSATREPPYRVPRDDWEEKRHFRRDSFDDRGPSLNPVLDYDHGSRSQESGYYDRMDYEDDRLRDGERCRDDSFFGETSHNYHKFDSEYERMGRGPGPLQERSLFEKKRGAPPSSNIEDFHGLLPKGYPHLCSICDLPVHSNKEWSQHINGASHSRRCQLLLEIYPEWNPDNDTGHTMGDPFMLQQSTNPAPGILGPPPPSFHLGGPAVGPRGNLGAGNGNLQGPRHMQKGRVETSRVVHIMDFQRGKNLRYQLLQLVEPFGVISNHLILNKINEAFIEMATTEDAQAAVDYYTTTPALVFGKPVRVHLSQKYKRIKKPEGKPDQKFDQKQELGRVIHLSNLPHSGYSDSAVLKLAEPYGKIKNYILMRMKSQAFIEMETREDAMAMVDHCLKKALWFQGRCVKVDLSEKYKKLVLRIPNRGIDLLKKDKSRKRSYSPDGKESPSDKKSKTDGSQKTESSTEGKEQEEKSGEDGEKDTKDDQTEQEPNMLLESEDELLVDEEEAAALLESGSSVGDETDLANLGDVASDGKKEPSDKAVKKDGSASAAAKKKLKKVDKIEELDQENEAALENGIKNEENTEPGAESSENADDPNKDTSENADGQSDENKDDYTIPDEYRIGPYQPNVPVGIDYVIPKTGFYCKLCSLFYTNEEVAKNTHCSSLPHYQKLKKFLNKLAEERRQKKET
B5: human exportin-2; sequence looked up; chain MELSDANLQTLTEYLKKTLDPDPAIRRPAEKFLESVEGNQNYPLLLLTLLEKSQDNVIKVCASVTFKNYIKRNWRIVEDEPNKICEADRVAIKANIVHLMLSSPEQIQKQLSDAISIIGREDFPQKWPDLLTEMVNRFQSGDFHVINGVLRTAHSLFKRYRHEFKSNELWTEIKLVLDAFALPLTNLFKATIELCSTHANDASALRILFSSLILISKLFYSLNFQDLPEFFEDNMETWMNNFHTLLTLDNKLLQTDDEEEAGLLELLKSQICDNAALYAQKYDEEFQRYLPRFVTAIWNLLVTTGQEVKYDLLVSNAIQFLASVCERPHYKNLFEDQNTLTSICEKVIVPNMEFRAADEEAFEDNSEEYIRRDLEGSDIDTRRRAACDLVRGLCKFFEGPVTGIFSGYVNSMLQEYAKNPSVNWKHKDAAIYLVTSLASKAQTQKHGITQANELVNLTEFFVNHILPDLKSANVNEFPVLKADGIKYIMIFRNQVPKEHLLVSIPLLINHLQAESIVVHTYAAHALERLFTMRGPNNATLFTAAEIAPFVEILLTNLFKALTLPGSSENEYIMKAIMRSFSLLQEAIIPYIPTLITQLTQKLLAVSKNPSKPHFNHYMFEAICLSIRITCKANPAAVVNFEEALFLVFTEILQNDVQEFIPYVFQVMSLLLETHKNDIPSSYMALFPHLLQPVLWERTGNIPALVRLLQAFLERGSNTIASAAADKIPGLLGVFQKLIASKANDHQGFYLLNSIIEHMPPESVDQYRKQIFILLFQRLQNSKTTKFIKSFLVFINLYCIKYGALALQEIFDGIQPKMFGMVLEKIIIPEIQKVSGNVEKKICAVGITKLLTECPPMMDTEYTKLWTPLLQSLIGLFELPEDDTIPDEEHFIDIEDTPGYQTAFSQLAFAGKKEHDPVGQMVNNPKIHLAQSLHKLSTACPGRVPSMVSTSLNAEALQYLQGYLQAASVTLL
B6: peroxiredoxin-6 (human); sequence looked up; chain PGGLLLGDVAPNFEANTTVGRIRFHDFLGDSWGILFSHPRDFTPVCTTELGRAAKLAPEFAKRNVKLIALSIDSVEDHLAWSKDINAYNCEEPTEKLPFPIIDDRNRELAILLGMLDPAEKDEKGMPVTARVVFVFGPDKKLKLSILYPATTGRNFDEILRVVISLQLTAEKRVATPVDWKDGDSVMVLPTIPEEEAKKLFPKGVFTKELPSGKKYLRYTPQP
B7: human AP1G1; sequence looked up; chain MPAPIRLRELIRTIRTARTQAEEREMIQKECAAIRSSFREEDNTYRCRNVAKLLYMHMLGYPAHFGQLECLKLIASQKFTDKRIGYLGAMLLLDERQDVHLLMTNCIKNDLNHSTQFVQGLALCTLGCMGSSEMCRDLAGEVEKLLKTSNSYLRKKAALCAVHVIRKVPELMEMFLPATKNLLNEKNHGVLHTSVVLLTEMCERSPDMLAHFRKLVPQLVRILKNLIMSGYSPEHDVSGISDPFLQVRILRLLRILGRNDDDSSEAMNDILAQVATNTETSKNVGNAILYETVLTIMDIKSESGLRVLAINILGRFLLNNDKNIRYVALTSLLKTVQTDHNAVQRHRSTIVDCLKDLDVSIKRRAMELSFALVNGNNIRGMMKELLYFLDSCEPEFKADCASGIFLAAEKYAPSKRWHIDTIMRVLTTAGSYVRDDAVPNLIQLITNSVEMHAYTVQRLYKAILGDYSQQPLVQVAAWCIGEYGDLLVSGQCEEEEPIQVTEDEVLDILESVLISNMSTSVTRGYALTAIMKLSTRFTCTVNRIKKVVSIYGSSIDVELQQRAVEYNALFKKYDHMRSALLERMPVMEKVTTNGPTEIVQTNGETEPAPLETKPPPSGPQPTSQANDLLDLLGGNDITPVIPTAPTSKPSSAGGELLDLLGDINLTGAPAAAPAPASVPQISQPPFLLDGLSSQPLFNDIAAGIPSITAYSKNGLKIEFTFERSNTNPSVTVITIQASNSTELDMTDFVFQAAVPKTFQLQLLSPSSSIVPAFNTGTITQVIKVLNPQKQQLRMRIKLTYNHKGSAMQDLAEVNNFPPQSWQ
Sequence of UniProt P13393 (whole entry, looked up): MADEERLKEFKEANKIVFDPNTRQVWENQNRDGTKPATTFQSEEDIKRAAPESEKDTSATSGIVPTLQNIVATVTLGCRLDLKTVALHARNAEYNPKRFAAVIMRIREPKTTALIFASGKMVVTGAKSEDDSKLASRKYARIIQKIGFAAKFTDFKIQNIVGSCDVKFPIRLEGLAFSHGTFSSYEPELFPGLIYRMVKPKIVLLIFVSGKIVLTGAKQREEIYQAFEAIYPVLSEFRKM
Sequence of UniProt P21980 (whole entry, looked up): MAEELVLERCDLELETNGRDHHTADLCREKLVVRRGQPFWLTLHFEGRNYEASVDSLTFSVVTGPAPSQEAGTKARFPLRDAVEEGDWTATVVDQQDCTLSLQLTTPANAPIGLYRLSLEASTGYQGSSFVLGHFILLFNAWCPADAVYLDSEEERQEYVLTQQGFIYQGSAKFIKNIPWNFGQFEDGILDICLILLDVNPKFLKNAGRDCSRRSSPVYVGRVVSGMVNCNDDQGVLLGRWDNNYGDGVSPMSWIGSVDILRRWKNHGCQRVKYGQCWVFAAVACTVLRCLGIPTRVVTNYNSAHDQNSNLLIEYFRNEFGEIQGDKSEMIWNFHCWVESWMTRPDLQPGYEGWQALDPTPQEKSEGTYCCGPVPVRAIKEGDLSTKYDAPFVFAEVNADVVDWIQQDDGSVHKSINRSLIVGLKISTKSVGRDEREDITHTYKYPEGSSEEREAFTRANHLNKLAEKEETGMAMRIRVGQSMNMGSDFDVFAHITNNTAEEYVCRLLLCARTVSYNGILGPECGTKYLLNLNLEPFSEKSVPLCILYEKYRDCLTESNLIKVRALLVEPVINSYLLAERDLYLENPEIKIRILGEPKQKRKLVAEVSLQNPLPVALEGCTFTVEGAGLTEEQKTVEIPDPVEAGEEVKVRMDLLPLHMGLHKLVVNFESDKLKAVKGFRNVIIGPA

Substance | target or system | test | system | setting | scale | quantity | value
CTGAAGGGGGGGCTATAAAAGTTTATGGGGGCTCCTCAAGTCAATCGGTCC (dsDNA; 5'-amino-C6 primer) | SPT15 full length assumed (Saccharomyces cerevisiae, UniProt P13393) | array | double-stranded DNA, one strand shown | TBP alone |  | Kd | 16.6 ± 2 nM
ECDPIGYEY | Jurkat expressing engineered TCR | NFAT-eGFP reporter, fluorescence microscopy | peptide | concentration not given, HLA-A*01:01 on EL4 cells |  | GFP-positive cells | 0.583%
CAGGGGUUU (ssRNA) | U2AF2 | sequencing of bound RNA | RNA | motif only |  | Kd | 1880 nM
QSDPIESEY | Jurkat NFAT-eGFP expressing engineered TCR | NFAT reporter gene | peptide | concentration not given, HLA-A*01:01 presentation |  | GFP-positive cells | 6.21%
B1 (FasL) | mouse thymocytes | inducer, flow cytometry |  | concentration not given |  | PI-positive cells | 5.6% and 5.4%
B2 (citrin, human) | CYB5R4 knockout human cells | PP4 interaction, 3xFLAG-PP4C IP-MS |  | concentration not given | relative to: CYB5R4 KO over parental | log2 fold change | -1.08
monocyte chemoattractant protein-1 | HUVEC | scratch wound |  | 50 ng/mL, 24 h | relative to: control | endothelial cell migration | increased
ESDPINESY | Jurkat expressing engineered TCR | NFAT-eGFP reporter, fluorescence microscopy | peptide | concentration not given, HLA-A*01:01 on EL4 cells |  | GFP-positive cells | 10.7%
B3 (peroxiredoxin-4) | CYB5R4 knockout human cells | PP4 interaction, 3xFLAG-PP4C IP-MS |  | concentration not given | relative to: CYB5R4 KO over parental | log2 fold change | -0.21
MTVCNASQRQAHAQATAVSL | HCC366 | phage binding | peptide |  | relative to: targeting over control phage | selectivity ratio | 1.2 ± 0.49
GGGAGCAGGAGAGAGGUCAGAUGAACGGUAAACGUGCAAGCCUUGGUAACGUUCCUAUGCGUGCUAGUGUGA (ssRNA; 2'-fluoro pyrimidines) | TGM2 2-687 (Homo sapiens, UniProt P21980) | SPR | RNA | with: MgCl2 5 mM | higher = more binding | relative binding | -14.1 RU
B4 (human matrin-3) | CYB5R4 knockout human cells | PP6 interaction, 3xFLAG-PP6C IP-MS |  | concentration not given | relative to: CYB5R4 KO over parental | log2 fold change | -1.48
YLDPIPLGY | Jurkat NFAT-eGFP expressing engineered TCR | NFAT reporter gene | peptide | concentration not given, HLA-A*01:01 presentation |  | GFP-positive cells | 0.539%
CUUAUAUUU (ssRNA) | U2AF2 | sequencing of bound RNA | RNA | motif only |  | Kd | 2100 nM
garcinone C | 22Rv1 | cell viability |  | 48 h |  | IC50 | 22600 nM
Peginesatide | UT7/EPO | tyrosine phosphorylation, LC-MS/MS phosphoproteomics, GluC, item: STAT5B tyrosine 699 |  | 10 nM, 15 min, with: 10 U/mL EPO | relative to: vehicle | phosphorylation level | 75.2 fold
MSDPIQDDF | Jurkat NFAT-eGFP expressing engineered TCR | NFAT reporter gene | peptide | concentration not given, HLA-A*01:01 presentation |  | GFP-positive cells | 0.674%
B5 (human exportin-2) | CYB5R4 knockout human cells | PP4 interaction, 3xFLAG-PP4C IP-MS |  | concentration not given | relative to: CYB5R4 KO over parental | log2 fold change | -0.38
epoetin alfa | UT7/EPO | RT-qPCR, item: EGR2 |  | concentration not given, 90 min, normalized to HPRT1 | relative to: vehicle | mRNA level | 8.5 fold
B6 (peroxiredoxin-6) | CYB5R4 knockout human cells | PP6 interaction, 3xFLAG-PP6C IP-MS |  | concentration not given | relative to: CYB5R4 KO over parental | log2 fold change | -0.42
catalase | HT-29 | western blot, item: cyclin A, D1 and E |  | concentration not given, 48 h |  | protein level | decreased
colistin | Enterobacter cloacae |  | clinical isolate RKI 466/13 |  |  | MIC | ≤ 0.5 µg/mL
B7 (human AP1G1) | CYB5R4 knockout human cells | PP4 interaction, 3xFLAG-PP4C IP-MS |  | concentration not given | relative to: CYB5R4 KO over parental | log2 fold change | -0.55
YEQDPWGVKWWY | mouse bone marrow-derived macrophages | qPCR, item: Arg-1 | peptide | concentration not given, with: IL-4 |  | mRNA level | decreased
